Published values from different studies.
Numbered parts are unrelated; each lists some results of a single study. Changes are numbered by the printed parent chain.

Block 1 — method: protein-binding microarray; molecule type: double-stranded DNA, one strand shown; matrix: in vitro; tested at: 2200 nM top; notes: 60-bp whole probe; with: salmon DNA 0.4 mg/ml; reference: random background probes; direction: higher = stronger binding; measurement: fitted relative affinity; constant ends, left off below: GCCTAGCAC … GTCTTGATTCGCTTGACGCTGCTG
Target: Interferon regulatory factor 7, full length, phosphomimetic (IRF7, Homo sapiens, UniProt Q92985, residues 1-503, S471D/S472D/S475D/S476D/S477D/S483D/S484D/S487D)
Target sequence (chain): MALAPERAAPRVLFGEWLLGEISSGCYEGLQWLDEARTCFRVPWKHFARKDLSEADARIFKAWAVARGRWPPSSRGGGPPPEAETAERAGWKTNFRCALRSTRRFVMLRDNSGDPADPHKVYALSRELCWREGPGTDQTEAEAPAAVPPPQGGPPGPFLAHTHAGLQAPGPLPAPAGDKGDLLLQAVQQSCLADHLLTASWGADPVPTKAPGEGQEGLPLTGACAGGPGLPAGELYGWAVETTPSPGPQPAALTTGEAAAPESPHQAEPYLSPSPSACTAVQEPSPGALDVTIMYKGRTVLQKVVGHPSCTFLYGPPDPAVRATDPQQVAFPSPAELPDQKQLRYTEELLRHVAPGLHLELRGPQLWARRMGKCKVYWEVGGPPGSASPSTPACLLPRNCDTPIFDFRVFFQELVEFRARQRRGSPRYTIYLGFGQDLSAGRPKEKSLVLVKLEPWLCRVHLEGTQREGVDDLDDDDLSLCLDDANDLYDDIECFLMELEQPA
GGCCAAACAGTATTAAACTCGTGCTAG: -0.146 z-score
TTAGATATCTGGTATCGATTAGTGCTA: 0.191 z-score
GACGGTTTCGGTATTGGGACGTGCTAG: 7.38 z-score
TTAGATTTCGGGTATCTATTAGTGCTA: 2.68 z-score
ACAGATGAGGAACCAAGGCCGTGCTAG: -0.946 z-score
TCAACTTTCCAATTGTCACTGTGCTAG: 4.68 z-score
GGTCCTTTCTGCCTCAGAGGGTGCTAG: 0.732 z-score
TTAGGACTGGATTTTCGGTTAGTGCTA: 3.71 z-score

Block 2 — target: CCNB3, cyclin fold, Cln2 fusion (human); method: yeast growth competition, sequencing; matrix: yeast; notes: strong parent motif; reference: not given; direction: higher = stronger binding; measurement: normalised enrichment score; starting sequence: viral docking peptide; YKVKRRLVFGADD
R5S: 0.0817
D12G: 1.72
K4V: 0.696
K4T: 0.272
G10V: 1.53
V3C: 2.14
D12F: 1.22
A11H: 1.82
K2C: 2.38
F9K: -0.118
L7D: 0.0321
R6G: 0.0552
K4W: 1.15
A11M: 1.77
V8E: 2.04
K2Y: 1.81
R6V: 2.23
V3Y: 0.0779

Block 3 — method: protein-binding microarray; molecule type: hairpin DNA; matrix: in vitro; tested at: not given; reference: not given; direction: higher = stronger binding; measurement: median fluorescence
Target: Runt-related transcription factor 1, full length (RUNX1, Homo sapiens, UniProt Q01196-8, residues 1-480)
Notes: whole hairpin DNA, median over replicate spots
GAGGCCTGTTGTCGTTGGCCTCCTGGCCAACGACAACAGGCCTCACACTC (5mC at 31): 1640 a.u.
GAGGCCTGTCGCAGTTGGCCTCCTGGCCAACTGCGACAGGCCTCACACTC: 1760 a.u.
GAGGCCTGTCGAGGTTGGCCTCCTGGCCAACCTCGACAGGCCTCACACTC: 1770 a.u.
GAGGCCCAACCCGAACAGCCTCCTGGCTGTTCGGGTTGGGCCTCACACTC (5mC at 12 32): 1920 a.u.
CTCAGTTCTGGGGGCTGGACTCCTGTCCAGCCCCCAGAACTGAGACACTC (5mC at 34): 1860 a.u.
CTCAGTTCTGTGGGCGGGACTCCTGTCCCGCCCACAGAACTGAGACACTC (5mC at 15): 2380 a.u.
GAGGCCTGTTGTGGCTGGCCTCCTGGCCAGCCACAACAGGCCTCACACTC (5mC at 15): 1960 a.u.
GAGCCCTGTCGCGGTTGGCCTCCTGGCCAACCGCGACAGGGCTCACACTC (5mC at 4): 2490 a.u.

Block 4 — observed: peptide-MHC binding; molecule type: peptide; tested at: concentration not given; measurement: binding
Target: HLA class I histocompatibility antigen, A alpha chain, allele A*80:01 (Homo sapiens, UniProt P04439)
VPHVIEEVM: inactive
FSDVSHWWQ: inactive
SLMSRVVYK: inactive
HHYSQAAVL: inactive
LYKTIVNIW: inactive

Other studies, line by line
CCOc1ccc(Nc2c3c(nc4ccccc24)CCC3)cc1
inhibition (Leishmania donovani; THP-1 intracellular amastigotes, DD8 resistant line; 8 µM, resistance confirmation): 61%
